# Measured values pooled from the literature.
# Every numbered part comes from another study and shows a few of its results, in no order. Substitutions count along the parent as printed.

# Sample 1
# Target: Histone acetyltransferase KAT6A, winged helix 2, GST fusion (KAT6A, Homo sapiens, UniProt Q92794, residues 85-181)
# Method: protein binding microarray
# Molecule type: double-stranded DNA, one strand shown
# Matrix: in vitro
# Tested at: not given
# Setting: 8-mer, flanks averaged, mean of 2 arrays, mostly near background
# Relative to: not given
# Direction: higher = stronger binding
# Construct (chain): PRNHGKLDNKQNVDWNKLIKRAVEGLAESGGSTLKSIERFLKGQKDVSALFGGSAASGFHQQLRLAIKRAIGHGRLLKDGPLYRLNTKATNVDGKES
Oligonucleotide,E-score
CCACGCAC,0.19
AAGATACA,-0.0418
ACAATATG,-0.0295
ATTATGAG,-0.034
AATTAGTA,0.181
CCTACAGC,-0.183
AGAACATG,0.105
AGCAGCTA,0.00488
TACGTACA,-0.168
AATCCGCA,0.0472
TAGGCCGA,-0.116
GGCTACAA,0.135
GGGTAAAC,0.0285
TTCGCCAA,0.105
GACCCGAA,0.0837
GAGCTCGC,0.256
ATGGCGTG,0.0209
CTCATGGC,0.112
ATATGCTG,-0.00255
AGGAGTCA,-0.0325
GATTGCAA,0.00106
AGAGCTGA,0.00903
ATCGCGAT,0.0792
TACGTGGA,-0.274
ATTTACGA,-0.0438

# Sample 2
# Target: Sal-like protein 4, full length isoform A (SALL4, Homo sapiens, UniProt Q9UJQ4, residues 1-1053)
# Sequence of UniProt Q9UJQ4 (whole entry, looked up): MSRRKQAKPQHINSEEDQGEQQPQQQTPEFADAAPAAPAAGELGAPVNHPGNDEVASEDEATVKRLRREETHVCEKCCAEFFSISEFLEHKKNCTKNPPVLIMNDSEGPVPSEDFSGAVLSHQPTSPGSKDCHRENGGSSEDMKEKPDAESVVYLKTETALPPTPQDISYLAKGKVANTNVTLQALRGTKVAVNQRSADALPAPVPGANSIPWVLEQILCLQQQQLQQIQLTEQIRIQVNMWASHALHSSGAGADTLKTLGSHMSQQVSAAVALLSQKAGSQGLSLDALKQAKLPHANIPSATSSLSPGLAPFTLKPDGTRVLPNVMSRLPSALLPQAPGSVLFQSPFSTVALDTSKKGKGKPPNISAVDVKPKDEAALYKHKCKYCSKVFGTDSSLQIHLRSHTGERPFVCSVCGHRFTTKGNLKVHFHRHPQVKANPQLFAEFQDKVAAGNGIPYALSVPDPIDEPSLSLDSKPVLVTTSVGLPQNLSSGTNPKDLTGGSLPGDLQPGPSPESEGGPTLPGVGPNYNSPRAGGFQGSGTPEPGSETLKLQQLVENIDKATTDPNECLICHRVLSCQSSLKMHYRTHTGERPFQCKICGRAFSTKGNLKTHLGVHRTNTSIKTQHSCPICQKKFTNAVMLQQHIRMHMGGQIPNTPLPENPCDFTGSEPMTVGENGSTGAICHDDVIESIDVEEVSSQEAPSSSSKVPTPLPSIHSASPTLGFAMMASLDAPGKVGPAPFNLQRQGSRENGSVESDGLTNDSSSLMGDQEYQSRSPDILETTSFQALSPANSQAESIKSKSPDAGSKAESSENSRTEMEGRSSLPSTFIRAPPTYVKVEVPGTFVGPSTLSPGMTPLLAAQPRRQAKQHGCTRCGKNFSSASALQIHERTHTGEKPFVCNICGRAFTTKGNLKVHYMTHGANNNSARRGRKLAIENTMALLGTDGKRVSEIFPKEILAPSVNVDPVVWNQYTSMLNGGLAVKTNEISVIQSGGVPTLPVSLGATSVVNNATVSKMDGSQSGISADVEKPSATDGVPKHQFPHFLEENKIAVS
# Method: universal PBM
# Molecule type: double-stranded DNA, one strand shown
# Matrix: in vitro
# Tested at: 600 nM
# Setting: 8-mer, flanks averaged, mean of replicates
# Direction: higher = stronger binding
Oligonucleotide,E-score
TGCGTCAA,0.0603
AGCATCCG,-0.247
CGCAGCAA,-0.152
AAGTACCC,-0.23
ACGTTACT,0.111
GAGCACCA,-0.102
CCCAGTTA,-0.153
CAAAGCGA,-0.029
ACGTTAAG,-0.0325
AACTAACA,0.152
ACCACTAA,0.108
GTTAGTGA,0.0886
ATTTTCTA,0.332
GCTCCACA,-0.251
AGATTTAC,0.204
AGAGGATC,-0.197
GCGCGCAA,-0.107
AACTTATG,0.302
ATAGCAAT,0.273
AGTGGGAA,0.00813
AACTGTGC,-0.115
GCCAAGAC,-0.0918
GCGTGCCA,-0.339
AGGAAGAA,0.0374
GTGAACAC,-0.155

# Sample 3
# Target: CCNE1, cyclin fold, Cln2 fusion (human)
# Method: yeast growth competition, sequencing
# Matrix: yeast
# Setting: weak parent motif
# Relative to: not given
# Direction: higher = stronger binding
# Starting sequence: SAMHD1 docking peptide (human); ASKSRVQLFKDDP
Variant,normalised enrichment score
R5T,-0.0818
Q7Y,0.346
V6W,-0.155
K10T,0.301
Q7C,-0.0971
L8Q,-0.0617
D11Q,-0.217
Q7A,-0.237
L8Y,-0.0824
D11W,-0.036
S4D,0.086
D11H,-0.0666
V6A,0.255
D11G,0.243
R5Y,0.0181
S2P,0.218
K10E,0.116
R5G,0.0885
V6I,-0.14
K10L,0.127
L8C,-0.332
F9G,0.0183
K3Q,0.0438
S4H,0.699
F9Q,-0.0649

# Sample 4
# Target: Interferon regulatory factor 5, full length, phosphomimetic (IRF5, Homo sapiens, UniProt Q13568-2, residues 1-514, S451D/S453D/S456D/S462D)
# Method: protein-binding microarray
# Molecule type: double-stranded DNA, one strand shown
# Matrix: in vitro
# Tested at: 940 nM top
# Setting: 60-bp whole probe
# Added: salmon DNA 0.4 mg/ml
# Relative to: random background probes
# Direction: higher = stronger binding
# Shared flanks, not repeated: GCCTAGCAC … GTCTTGATTCGCTTGACGCTGCTG
Oligonucleotide,fitted relative affinity [z-score]
TCAGATTTTGTCCTCCCACTGTGCTAG,0.242
TCAGTTTTCTCCATGGAACTGTGCTAG,0.65
TTAGGATTCCTACTGCTTTAGTGCTAG,-0.298
TCAGCTGTTTTTCTCACACTGTGCTAG,0.756
GCCGGTATCGGTTTCGGGACGTGCTAG,11.6
GACGGACTGGGTCTCGGGATGTGCTAG,-0.0634
TTAGGTATCGGGTATCGGTTGGTGCTA,7.14
TTAGGTATCGACACTGGGCTAGTGCTA,4.91
TTAGATGTCAGACTGGATTAGTGCTAG,-0.573
CTTTTTTTTTTTTTTTTTTGGTGCTAG,1.26
GACGGTCCCCTTCTCCTGACGTGCTAG,0.139
TTAGGTATCGGTCCCGGTTAGTGCTAG,9
TTAGGTTTGGACTATCGGTTAGTGCTA,0.12
GACGGACTGGGAGTGGGGACGTGCTAG,-0.457
TTAGAACTGGGGTTGCGATTAGTGCTA,0.63
TTAGATATCAGACCGGATTAGTGCTAG,-0.48
GACGGACTGGACACTGGGTACGTGCTA,-0.565

# Sample 5
# Target: ABI1, truncated, D143A, DHFR fusion (Arabidopsis thaliana)
# Method: DHFR PCA, deep sequencing
# Matrix: yeast
# Setting: methotrexate growth selection, single substitutions
# Added: (+)-ABA 0.032 µM
# Relative to: wild-type fitted maximum
# Direction: higher = stronger binding
# Starting sequence: PYL1, truncated, DHFR fusion (Arabidopsis thaliana); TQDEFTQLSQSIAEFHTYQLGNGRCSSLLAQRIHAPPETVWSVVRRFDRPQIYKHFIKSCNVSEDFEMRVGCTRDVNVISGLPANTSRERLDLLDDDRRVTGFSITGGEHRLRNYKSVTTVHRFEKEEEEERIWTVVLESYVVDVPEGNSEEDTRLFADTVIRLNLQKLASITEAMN; partner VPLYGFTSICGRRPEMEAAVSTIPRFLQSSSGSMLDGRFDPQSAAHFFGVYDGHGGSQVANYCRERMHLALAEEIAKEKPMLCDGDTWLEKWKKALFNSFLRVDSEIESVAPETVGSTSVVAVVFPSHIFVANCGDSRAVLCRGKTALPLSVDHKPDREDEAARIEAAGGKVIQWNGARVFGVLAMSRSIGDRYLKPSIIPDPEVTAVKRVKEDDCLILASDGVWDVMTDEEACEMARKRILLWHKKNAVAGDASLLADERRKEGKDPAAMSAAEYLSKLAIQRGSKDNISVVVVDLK
Variant,relative binding score
C60F,-5.55%
S87T,36.2%
R46A,12.6%
R32Q,14.8%
S87C,44.4%
R123Y,5.27%
D75H,18.4%
D65Y,-5.65%
C25F,2.2%
E147Y,7.07%
A170I,-17.8%
Y141D,4.16%
G21F,-2.16%
K116C,0.317%
I33F,-2.07%
V136K,2.5%

# Sample 6
# Target: NFE2L3, bZIP domain (human)
# Method: DHFR protein complementation
# Matrix: yeast
# Setting: single substitutions, most at no-binding floor
# Relative to: wild-type JUN-FOS pair
# Direction: higher = stronger binding
# Starting sequence: JUN, bZIP domain (human); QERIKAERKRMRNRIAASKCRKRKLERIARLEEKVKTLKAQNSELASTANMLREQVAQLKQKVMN; partner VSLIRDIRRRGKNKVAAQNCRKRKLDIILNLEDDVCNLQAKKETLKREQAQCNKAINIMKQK
Variant,binding fitness
S43V,-1.52 natural log
E32K,-1.58 natural log
S47C,-1.53 natural log
I28A,-1.39 natural log
E32A,-1.24 natural log
M51K,-1.61 natural log
A57R,-1.17 natural log
A57P,-1.56 natural log
E44H,-1.54 natural log
T37R,-1.53 natural log
N42F,-1.61 natural log
V35T,-1.55 natural log
R53G,-1.61 natural log
R30A,-1.37 natural log
L38W,-1.5 natural log
N42T,-1.44 natural log
K36S,-1.4 natural log
R53D,-1.68 natural log
A46E,-1.57 natural log
L45W,-1.58 natural log

# Mixed results
# Method: cross-linking MS
Substance,partner,matrix,setting,added,quantity,result
"EIF2S2 (Homo sapiens, UniProt P20042)","ANO10 (Homo sapiens, UniProt Q9NW15)",cell fractions,,DSSO,cross-linked residues,K99 to K636
"PFN1 (Homo sapiens, UniProt P07737)","SEMA4C (Homo sapiens, UniProt Q9C0C4)",cell fractions,,DSSO,cross-linked residues,T90 to S35
"PSMD12 (Homo sapiens, UniProt O00232)","PSMD13 (Homo sapiens, UniProt Q9UNM6)",,hits only,,interaction screen,cross-linked
"MCM4 (Homo sapiens, UniProt P33991)","MCM7 (Homo sapiens, UniProt P33993)",cell fractions,,DMTMM,cross-linked residues,K627 to E502

# For quick reference, copied from above (sample 2):
Oligonucleotide,E-score
GAGCACCA,-0.102
CCCAGTTA,-0.153
CAAAGCGA,-0.029
ACGTTAAG,-0.0325
AACTAACA,0.152
ACCACTAA,0.108
GTTAGTGA,0.0886
ATTTTCTA,0.332
GCTCCACA,-0.251
AGATTTAC,0.204
AGAGGATC,-0.197
GCGCGCAA,-0.107
AACTTATG,0.302
ATAGCAAT,0.273
AGTGGGAA,0.00813
AACTGTGC,-0.115
GCCAAGAC,-0.0918
